Measurements collected from several papers.
Parts stem from different laboratories: compare values within a part only.

Series 1
Target: Histone acetyltransferase KAT6A, winged helix 1, GST fusion (KAT6A, Homo sapiens, UniProt Q92794, residues 1-85)
Technique: protein binding microarray
Molecule type: double-stranded DNA, one strand shown
Medium: in vitro
Tested at: not given
Notes: 8-mer, flanks averaged, mean of 2 arrays, mostly near background
Reference: not given
Direction: higher = stronger binding
Measurement: E-score
Target sequence (chain): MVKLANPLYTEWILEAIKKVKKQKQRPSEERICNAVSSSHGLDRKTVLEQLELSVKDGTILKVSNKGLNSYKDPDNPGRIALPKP
ACAGGACG: 0.0831
AAAGGGTT: 0.0797
AGTGGATG: -0.151
AGGGATAG: -0.0773
ACCAGTCA: -0.0575
CGTAGCTC: 0.201
CTTGAGAC: -0.0556
ACTGTAAC: -0.0647
CACTTCAA: -0.184
ATACAGGC: -0.148
CATGTTCG: -0.0644
AGGCACAC: -0.159
CCTTATTC: -0.224
TAGAGTGA: -0.202
CCCGTCAG: 0.213
ATTTGATG: -0.218
ACATCCGG: 0.166
ATCCACAT: -0.163
ATCAAAGG: 0.00934
GGCGAGTA: 0.234
ACGAGTTA: -0.0727
GACCCAGA: -0.067
CGTCGGAC: 0.386
ACAAGCCA: -0.19

Series 2
Target: RNA binding protein fox-1 homolog 2, RRM domain, GST-SBP tag (RBFOX2, Homo sapiens, UniProt O43251-10, residues 100-194)
Technique: RNA Bind-n-Seq
Molecule type: RNA
Medium: in vitro
Tested at: 365 nM
Notes: natural RNA segment, single round, ends assumed
Reference: no-protein control
Direction: higher = stronger binding
Measurement: RBNS enrichment (R)
Shared flanks, not repeated: GGGAGUUCUACAGUCCGACGAUC … UGGAAUUCUCGGGUGCCAA
Construct (chain): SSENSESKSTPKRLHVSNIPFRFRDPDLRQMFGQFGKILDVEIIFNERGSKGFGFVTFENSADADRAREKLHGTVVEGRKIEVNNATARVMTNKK
UCUGCUGGGGUUUGUGUAAGCUGUGAUUCUUUCCCUUCCUAAUAGGUUGAGCUUGACAUGGAAAGGAGCAGUUGGCAGGGAAGGAACUUAUUCCCCAAGAGUGGUAACUA: 2.55
CAUUCAUGUUCUCAUUCAUGAUGUUCAUGAUCUUGAGAUCUAUCUGCUGCAGUUUUUUGACUCCUGUCUGGUGGAACAUCCUGGAUUUCUUGGAUUUUUAGGUGUAAUUU: 0.404
UCCAUGGCCACACUCCUGUGAAUGGGUAUCGGGGAGUUAGGAUCUUUCUUCUCCCAAUGCCUCUUGCUGGAAGCACUCUAUACCUCUCCACCUCCCUGGACUACUAAGCU: 0.638
CUUGUAGGAAGAUCUUUUGUAUCAGGAACAUGUACACUAGGCCCUGUUCCCGUCCACAAGCUGAGCCAUAUGUACAUAAGCUAGACUGUUUUCUUAGGUGUGCACUUUUA: 0.516
GGGAGGGAUGGGACUCACUCAGCCCUGUGAAUGUGUUCUAUGGCUGAGCAACAUCCCUAGCCUUCAGAAUAGAAUUUUUGAUGUUGGAAAUCCUGUAUUUAAAGGAAACC: 0.875
UAGUUAAGAGGUUCCACAGAGUAUUUUCCUUUCUGCUCCCAGUACCUCUCAAACGAUCUUUAGAUAGUUAACUUCUACUACUAUUUAACGUUAUCUUUUAGCACUCAUAG: 0.644
CGCUCACUGUCCUGCCUGCUGUCCUCUACAGCUCCCUAUCCUUCCAUGUCUUUGGCCAUGUAGAUUAAGUGUAGGCGUCCGGUUCAUUCUUACCUGUGUUAGGCCAUGUU: 0.641
GGCAUCGGAGAUGGGUUAACAUCUCAAAACAAAAUAGCCUACAAAUGUUCCUUGUGGGAGACUUUGGCGAGGGUCUGUGGGUAAAAGCACCAGGGGGUUAAUCUUGGCUC: 0.567
AAGCUGGAGAAUAAACAGGUACUGUGAUUGCUGGAAUAUUUCUGCAUAUACCUGAAGGUUAACACUCAGGAUACACAAACCUCUACAGACCUUAGAAUCCCAUCUCUAUU: 0.286
GUGCAAUCACAUCAAAAAAACAACCAGCCAGGAUUAAAGGUAUUAUAAAUCCUCAUAGCGGAACAUUUCUCAGGGCAAAGGAACCUGGCUCAUUUGAAGAUUAAUGUUCC: 0.624
UGACGGGGGCUCCAUACGGACCUGGGGACUGGGCUGAGAGGGUGGACGAGUUCAGGUUUGUUUUUGCAGCAGAUUCCGUCGUUCUUACUGAGUCUGCAGCGGGGGAGUGA: 1.15
UCCUGAUGAUACAGUAAUUGAUGGCAGACAGUUCUGUCUCCUUCCCAGUUGUUAGGCUGCCCCCCUGAGCCUCACCUUGUUCACCUUGGUUUUCCGAUGAUGAGCUUCCC: 0.615

Series 3
Target: Ras GTPase-activating protein-binding protein 1, C-terminal RGG region (G3BP1, Homo sapiens, UniProt Q13283)
Sequence of UniProt Q13283 (whole entry, looked up): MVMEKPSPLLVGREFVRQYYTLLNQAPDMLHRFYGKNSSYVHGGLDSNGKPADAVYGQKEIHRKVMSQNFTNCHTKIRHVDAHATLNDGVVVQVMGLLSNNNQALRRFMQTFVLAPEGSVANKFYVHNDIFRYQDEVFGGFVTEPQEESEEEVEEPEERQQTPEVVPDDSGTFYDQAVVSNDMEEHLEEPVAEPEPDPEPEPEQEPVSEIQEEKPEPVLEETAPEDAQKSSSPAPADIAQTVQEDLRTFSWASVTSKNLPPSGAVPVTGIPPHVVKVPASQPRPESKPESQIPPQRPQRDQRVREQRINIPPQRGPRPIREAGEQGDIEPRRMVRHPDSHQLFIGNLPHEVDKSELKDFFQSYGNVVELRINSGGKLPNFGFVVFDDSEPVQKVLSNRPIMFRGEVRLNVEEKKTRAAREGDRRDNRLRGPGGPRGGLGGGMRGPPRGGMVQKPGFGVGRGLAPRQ
Technique: RNA Bind-n-Seq
Molecule type: RNA
Medium: in vitro
Tested at: 1 µM
Notes: whole 134-nt RNA, ends assumed
Added: 150 mM KCl
Reference: input library
Direction: higher = stronger binding
Measurement: log2 enrichment
Shared flanks, not repeated: GGGAGUUCUACAGUCCGACGAUC … UGGAAUUCUCGGGUGUCAAGG
ACCAUGCAGGUGGGCAUCUUCGGGAAGUGGGGCAAGGGGGGGAUAGGGAGGGGGGUAACACUUUGGGAACAGGUGGUCCCAGGUCGUUUC: -0.956
CUCAAGUCCUGUGCUACACAUCGUAUGUACCGAAUCGGGCGGGGCGGGGCGGGAAAGUAUUAUGUUACGCCGUUCGGAUCUGCACUUCCA: 2.54
UAACUUUAGAGGAGGAUCUGAUGGAUAUGGCAUUGGACGUGGAUUUGGGGAUGGCUAUAAUGGGUAUGGAGGAGGACCUGGAGGUGGCAA: -1.41
UUUUCUGCAUGGACCGUGCCCUAGAAUUUGCCCCUGCCUGCCAUCGCUUCAAAAUCCUCAAGGCAGAAUGUUUAGCAAUGCUGGGUCGUU: -0.432
UGGAACAGCAGCUGCCACUCAGGCGUAAUUCCCACCUAGAGGAGAGUUUCACAUCCACCGAAGAAUCUUCCGAAGAAAAUGUCAACUUUU: -0.296
UAACUUUAGAGGAGGAUCUGAUGGAUAUGGCAGUGGACGUGGAUUUGGGGAUGGCUAUAAUUGGUAUGGAGGAGGACCUGGAGGUGGCAA: -0.504
GCAGGAAGUAAACACAAAUGGAAAUGCUUCGGAUAGUGGCAGGGGUGGGGGUUGCUAAGGAAAGGGUGGGAUGGGAGUGGGUAAAGAGUU: 1.84
AAGUCCUGUGCUACACAUCGUAUGUACCGAAUCGGUUUUGGGUUUUGGGGUUUUGGAAAGUAUUAUGUUACGCCGUUCGGAUCUGCACUU: -1.26
AGUCCUGUGCUACACAUCGUAUGUACCGAAUCGGGUUUUUGGGAAAGGGUUUUUGGGAAAGUAUUAUGUUACGCCGUUCGGAUCUGCACU: 0.814
UCAAGUCCUGUGCUACACAUCGUAUGUACCGAAUCGGGGUUGGGUUGGGUUGGGGAAAGUAUUAUGUUACGCCGUUCGGAUCUGCACUUC: 2.26
ACCAUGCAGGUGGGCAUCUUUGGGAAGUGGAAAAAGGGGGGGAUAGGGAGGGGGGUAACACUUUGGGAACAGGUGGUCCCAGGUCGUUUC: -0.899
UCAAGUCCUGUGCUACACAUCGUAUGUACCGAAUCGGGGUGGGGAGGGGUGGGGAAAGUAUUAUGUUACGCCGUUCGGAUCUGCACUUCC: 2.71
AGUCCUGUGCUACACAUCGUAUGUACCGAAUCGGAAAAAAAGGAAAAAAAGGUUUGGAAAGUAUUAUGUUACGCCGUUCGGAUCUGCACU: -2.53
CCUGUGCUACACAUCGUAUGUACCGAAUCGGGGAAAAAAAGGGGUUUGGGGAAAAAGGGGAAAGUAUUAUGUUACGCCGUUCGGAUCUGC: 0.955

Series 4
Target: Interferon regulatory factor 7, full length, phosphomimetic (IRF7, Homo sapiens, UniProt Q92985, residues 1-503, S101K/S471D/S472D/S475D/S476D/S477D/S483D/S484D/S487D)
Technique: protein-binding microarray
Molecule type: double-stranded DNA, one strand shown
Medium: in vitro
Tested at: 250 nM
Notes: 60-bp whole probe
Added: salmon DNA 0.4 mg/ml
Reference: random background probes
Direction: higher = stronger binding
Measurement: log fluorescence
Shared flanks, not repeated: GCCTAGCAC … GTCTTGATTCGCTTGACGCTGCTG
Target sequence (chain): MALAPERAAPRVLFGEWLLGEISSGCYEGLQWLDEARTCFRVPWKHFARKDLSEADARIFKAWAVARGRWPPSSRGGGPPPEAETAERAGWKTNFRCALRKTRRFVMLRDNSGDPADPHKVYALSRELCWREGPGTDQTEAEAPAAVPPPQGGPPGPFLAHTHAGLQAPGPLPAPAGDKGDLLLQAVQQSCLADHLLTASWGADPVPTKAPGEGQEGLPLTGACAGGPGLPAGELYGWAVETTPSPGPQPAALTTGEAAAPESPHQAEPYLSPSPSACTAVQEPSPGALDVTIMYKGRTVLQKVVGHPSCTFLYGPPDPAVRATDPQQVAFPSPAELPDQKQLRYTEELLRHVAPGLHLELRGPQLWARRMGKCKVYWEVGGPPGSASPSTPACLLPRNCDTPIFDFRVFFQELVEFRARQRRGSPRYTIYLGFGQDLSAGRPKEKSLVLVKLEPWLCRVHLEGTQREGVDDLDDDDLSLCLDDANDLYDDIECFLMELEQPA
GCACCTCTAGACTCTAAATTCGTGCTA: 0.225 z-score
TTAGGACTGGATACTGGGTTAGTGCTA: -0.714 z-score
ACCCGTACTGGGTCTGGATCGTGCTAG: -0.391 z-score
TCACTGCTACCCTTTGAAACTGTGCTA: -0.642 z-score
GACGGTATCGGTAGCGGGACGTGCTAG: -0.364 z-score
ATTACTTTAGGTTCCCAGGTGTGCTAG: 0.487 z-score
TTAGATTTCGGGCATCGATTAGTGCTA: 0.328 z-score
TAAATTTTCACGGTGGGTTCGTGCTAG: 0.099 z-score
GACGGTTTCCTTTTCTTGACGTGCTAG: 6.16 z-score
TTAGGTATCGAATTTCGGTTAGTGCTA: 1.91 z-score
CACGGTCTCGGTCTCGGGACGTGCTAG: 1.1 z-score
GACTATCTCAGACTGGAGACGTGCTAG: 0.18 z-score
TCTTTTTGCTTTCTTTTATGGTGCTAG: 2.24 z-score
GACTATGCCGACTTTGGAAGTGTGCTA: 0.0292 z-score
GAAGATTTCAGTCTCGAGACGTGCTAG: 0.525 z-score
TTAGGTATCGGGCTTCGGTTAGTGCTA: 0.0884 z-score
GACGATAACAGTCTCGAGACGTGCTAG: 0.335 z-score
GACGGTACCCTTTTCCTGACGTGCTAG: 1.15 z-score
GACGGTCTCGGTTTTGGGACGTGCTAG: 4.69 z-score
GACGGTTTAGGTATCGGGACGTGCTAG: 0.267 z-score
AAGCAAAAATGATTGGTTGAGTGCTAG: -0.485 z-score
TCCTGTGACGTTAAGGTCTCGTGCTAG: 0.123 z-score

Excerpt of the above (series 1):
ACATCCGG: 0.166
ATCCACAT: -0.163
ATCAAAGG: 0.00934
GGCGAGTA: 0.234
ACGAGTTA: -0.0727
GACCCAGA: -0.067
CGTCGGAC: 0.386
ACAAGCCA: -0.19
